Published values pooled from the literature.
Protocols differ between the studies behind these lines. ± gives the spread as reported.
LGALS3: Galectin-3 (LGALS3, Homo sapiens, UniProt P17931)
UniProt P17931, sequence (whole entry, looked up): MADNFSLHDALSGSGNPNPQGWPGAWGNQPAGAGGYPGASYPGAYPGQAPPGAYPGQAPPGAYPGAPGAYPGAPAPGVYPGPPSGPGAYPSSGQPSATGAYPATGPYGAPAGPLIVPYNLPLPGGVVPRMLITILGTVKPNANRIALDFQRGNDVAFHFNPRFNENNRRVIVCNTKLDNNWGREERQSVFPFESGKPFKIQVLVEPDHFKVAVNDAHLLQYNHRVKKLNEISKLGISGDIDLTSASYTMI
BCL2L1: Bcl-2-like protein 1 (BCL2L1, Homo sapiens, UniProt Q07817)
UniProt Q07817, sequence (whole entry, looked up): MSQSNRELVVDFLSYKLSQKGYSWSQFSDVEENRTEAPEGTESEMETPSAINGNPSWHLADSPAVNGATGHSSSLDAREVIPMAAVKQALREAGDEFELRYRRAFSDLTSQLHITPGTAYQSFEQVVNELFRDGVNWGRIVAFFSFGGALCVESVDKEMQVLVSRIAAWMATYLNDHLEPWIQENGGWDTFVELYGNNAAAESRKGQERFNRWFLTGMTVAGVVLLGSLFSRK
PPIA: Peptidyl-prolyl cis-trans isomerase A (PPIA, Homo sapiens, UniProt P62937)
UniProt P62937, sequence (whole entry, looked up): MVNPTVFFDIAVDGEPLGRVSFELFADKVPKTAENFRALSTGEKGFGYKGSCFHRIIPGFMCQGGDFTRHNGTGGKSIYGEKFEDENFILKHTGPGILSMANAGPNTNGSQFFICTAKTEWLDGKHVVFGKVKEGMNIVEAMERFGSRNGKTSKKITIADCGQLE
LGALS4 C-terminal domain: Galectin-4, C-terminal domain (LGALS4, Homo sapiens, UniProt P56470)
UniProt P56470, sequence (whole entry, looked up): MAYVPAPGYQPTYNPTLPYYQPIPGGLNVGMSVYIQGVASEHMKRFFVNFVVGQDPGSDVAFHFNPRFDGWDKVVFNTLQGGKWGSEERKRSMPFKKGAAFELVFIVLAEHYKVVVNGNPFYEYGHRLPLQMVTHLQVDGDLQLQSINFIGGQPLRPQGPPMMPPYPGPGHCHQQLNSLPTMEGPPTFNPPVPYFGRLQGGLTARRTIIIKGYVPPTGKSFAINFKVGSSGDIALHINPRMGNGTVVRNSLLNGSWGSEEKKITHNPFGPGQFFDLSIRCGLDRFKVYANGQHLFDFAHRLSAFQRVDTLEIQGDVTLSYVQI
UniProt P40337, sequence (whole entry, looked up): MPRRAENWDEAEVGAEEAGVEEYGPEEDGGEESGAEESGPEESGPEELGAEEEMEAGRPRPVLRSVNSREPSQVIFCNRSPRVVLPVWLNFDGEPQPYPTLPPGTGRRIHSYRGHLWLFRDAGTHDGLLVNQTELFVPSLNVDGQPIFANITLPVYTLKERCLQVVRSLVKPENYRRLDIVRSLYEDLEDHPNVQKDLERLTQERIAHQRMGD
UniProt Q9NNX6, sequence (whole entry, looked up): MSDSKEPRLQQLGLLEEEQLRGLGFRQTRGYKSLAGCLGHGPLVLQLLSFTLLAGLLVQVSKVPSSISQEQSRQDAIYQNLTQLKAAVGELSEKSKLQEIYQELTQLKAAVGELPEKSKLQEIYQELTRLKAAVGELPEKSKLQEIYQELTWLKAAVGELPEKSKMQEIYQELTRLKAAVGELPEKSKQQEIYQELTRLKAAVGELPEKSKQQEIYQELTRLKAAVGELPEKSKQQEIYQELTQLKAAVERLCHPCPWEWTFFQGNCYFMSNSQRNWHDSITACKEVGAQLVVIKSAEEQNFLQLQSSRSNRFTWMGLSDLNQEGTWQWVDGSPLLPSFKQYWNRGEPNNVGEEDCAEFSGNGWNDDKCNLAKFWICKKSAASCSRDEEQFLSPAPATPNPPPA
UniProt Q9BQB4, sequence (whole entry, looked up): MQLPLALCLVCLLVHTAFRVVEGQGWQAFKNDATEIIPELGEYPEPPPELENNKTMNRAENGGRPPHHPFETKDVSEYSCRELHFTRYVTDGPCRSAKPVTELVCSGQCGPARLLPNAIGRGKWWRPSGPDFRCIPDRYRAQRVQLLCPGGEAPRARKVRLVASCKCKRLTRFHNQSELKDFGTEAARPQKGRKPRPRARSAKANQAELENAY
UniProt P10636, sequence (whole entry, looked up): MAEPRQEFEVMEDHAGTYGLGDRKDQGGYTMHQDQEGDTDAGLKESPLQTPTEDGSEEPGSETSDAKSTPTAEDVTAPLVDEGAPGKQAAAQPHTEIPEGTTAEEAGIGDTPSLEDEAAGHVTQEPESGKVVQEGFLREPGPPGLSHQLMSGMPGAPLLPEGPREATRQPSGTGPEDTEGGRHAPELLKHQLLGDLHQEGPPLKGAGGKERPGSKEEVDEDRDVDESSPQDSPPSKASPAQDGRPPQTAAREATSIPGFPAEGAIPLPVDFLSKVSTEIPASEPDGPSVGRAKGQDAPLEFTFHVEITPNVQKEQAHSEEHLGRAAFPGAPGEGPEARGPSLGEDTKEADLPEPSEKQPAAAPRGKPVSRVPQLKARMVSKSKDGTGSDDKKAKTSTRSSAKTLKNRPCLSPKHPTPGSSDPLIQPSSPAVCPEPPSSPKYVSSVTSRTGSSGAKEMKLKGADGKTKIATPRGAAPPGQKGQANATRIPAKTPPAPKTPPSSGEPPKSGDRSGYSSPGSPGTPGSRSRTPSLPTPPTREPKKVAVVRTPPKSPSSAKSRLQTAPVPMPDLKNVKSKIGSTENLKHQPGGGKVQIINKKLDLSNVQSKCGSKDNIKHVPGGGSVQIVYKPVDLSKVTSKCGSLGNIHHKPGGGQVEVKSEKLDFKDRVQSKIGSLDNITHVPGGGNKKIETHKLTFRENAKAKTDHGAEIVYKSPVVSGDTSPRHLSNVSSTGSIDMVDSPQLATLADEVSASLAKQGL
UniProt Q7L0J3, sequence (whole entry, looked up): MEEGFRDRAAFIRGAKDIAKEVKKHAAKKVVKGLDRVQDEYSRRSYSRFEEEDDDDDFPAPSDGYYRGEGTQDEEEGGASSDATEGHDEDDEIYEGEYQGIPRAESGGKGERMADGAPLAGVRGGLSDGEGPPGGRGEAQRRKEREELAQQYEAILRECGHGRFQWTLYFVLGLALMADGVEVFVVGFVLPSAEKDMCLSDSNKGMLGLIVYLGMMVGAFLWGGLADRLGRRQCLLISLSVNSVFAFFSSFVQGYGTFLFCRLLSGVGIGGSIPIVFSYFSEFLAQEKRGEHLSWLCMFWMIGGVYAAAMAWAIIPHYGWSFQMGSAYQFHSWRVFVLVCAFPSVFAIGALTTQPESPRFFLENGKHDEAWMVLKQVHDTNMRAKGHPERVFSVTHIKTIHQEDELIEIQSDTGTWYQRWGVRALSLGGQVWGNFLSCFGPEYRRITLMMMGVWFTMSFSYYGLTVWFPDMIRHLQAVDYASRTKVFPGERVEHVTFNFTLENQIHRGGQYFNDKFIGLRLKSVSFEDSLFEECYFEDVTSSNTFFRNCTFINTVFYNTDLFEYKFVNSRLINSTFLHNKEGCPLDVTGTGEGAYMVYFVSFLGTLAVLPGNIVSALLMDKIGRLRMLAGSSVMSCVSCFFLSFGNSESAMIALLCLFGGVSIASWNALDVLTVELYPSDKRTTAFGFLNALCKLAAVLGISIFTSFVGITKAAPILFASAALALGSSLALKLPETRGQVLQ
UniProt Q8N5Y8, sequence (whole entry, looked up): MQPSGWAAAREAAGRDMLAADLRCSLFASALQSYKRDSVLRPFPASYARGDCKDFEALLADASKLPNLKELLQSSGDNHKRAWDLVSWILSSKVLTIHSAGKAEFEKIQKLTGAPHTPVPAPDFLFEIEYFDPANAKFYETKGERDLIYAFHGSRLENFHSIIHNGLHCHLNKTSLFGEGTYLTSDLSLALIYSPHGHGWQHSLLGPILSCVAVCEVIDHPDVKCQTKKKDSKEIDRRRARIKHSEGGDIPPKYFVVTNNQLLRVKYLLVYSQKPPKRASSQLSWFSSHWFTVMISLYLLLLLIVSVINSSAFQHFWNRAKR
UniProt P02754, sequence (whole entry, unmodified, looked up): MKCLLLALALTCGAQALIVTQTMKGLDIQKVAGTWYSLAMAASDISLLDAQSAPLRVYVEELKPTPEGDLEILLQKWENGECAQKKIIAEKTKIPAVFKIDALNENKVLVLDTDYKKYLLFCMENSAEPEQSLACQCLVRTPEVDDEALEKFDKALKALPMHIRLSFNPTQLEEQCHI
UniProt Q13976, sequence (whole entry, looked up): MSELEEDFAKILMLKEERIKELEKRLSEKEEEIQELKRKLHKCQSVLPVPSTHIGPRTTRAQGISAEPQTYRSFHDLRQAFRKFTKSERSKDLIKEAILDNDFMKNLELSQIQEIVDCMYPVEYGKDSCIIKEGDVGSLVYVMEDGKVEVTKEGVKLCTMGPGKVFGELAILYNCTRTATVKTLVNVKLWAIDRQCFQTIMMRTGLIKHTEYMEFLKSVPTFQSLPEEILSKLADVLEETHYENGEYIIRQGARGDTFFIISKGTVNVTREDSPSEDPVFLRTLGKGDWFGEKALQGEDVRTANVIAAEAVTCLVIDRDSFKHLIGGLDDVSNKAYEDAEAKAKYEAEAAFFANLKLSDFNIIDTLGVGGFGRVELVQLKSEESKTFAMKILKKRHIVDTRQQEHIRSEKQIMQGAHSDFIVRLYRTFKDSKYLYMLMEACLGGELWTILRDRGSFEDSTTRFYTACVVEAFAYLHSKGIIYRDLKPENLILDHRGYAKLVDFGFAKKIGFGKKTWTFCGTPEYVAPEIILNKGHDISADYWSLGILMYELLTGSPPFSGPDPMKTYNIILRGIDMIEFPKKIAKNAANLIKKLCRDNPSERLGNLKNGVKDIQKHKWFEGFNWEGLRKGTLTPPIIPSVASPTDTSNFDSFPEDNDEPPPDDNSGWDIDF

COc1c(F)c(F)c(C(=O)N[C@H]2[C@@H](O)[C@@H](CO)O[C@@H](OC)[C@@H]2O)c(F)c1F
Kd (LGALS3; cell-free assay, FP): 1300 µM

CC[C@H](C)[C@H](NC(=O)[C@H](CCCNC(=N)N)NC(=O)[C@H](CCCCN)NC(=O)[C@H](CC(C)C)NC(=O)[C@H](CCC(N)=O)NC(=O)[C@H](C)NC(=O)CNC(=O)[C@H](CC(N)=O)NC(=O)[C@H](CCC(=O)O)NC(=O)[C@H](CCCNC(=N)N)NC(=O)[C@H](C)NC(=O)[C@H](Cc1c[nH]c2ccccc12)NC(=O)[C@H](CCC(N)=O)NC(=O)[C@H](CCC(=O)O)NC(=O)[C@H](CCC(=O)O)NC(C)=O)C(=O)N[C@@H](C)C(=O)N[C@@H](CC(=O)O)C(=O)N[C@@H](CC(=O)O)C(=O)N[C@@H](Cc1ccc(O)cc1)C(=O)N[C@@H](CC(N)=O)C(=O)N[C@@H](C)C(=O)N[C@@H](CCC(N)=O)C(=O)N[C@@H](Cc1ccc(O)cc1)C(=O)N[C@@H](CCC(=O)O)C(=O)N[C@@H](CCCNC(=N)N)C(=O)N[C@@H](CCCNC(=N)N)C(=O)N[C@@H](CCCNC(=N)N)C(=O)N[C@@H](CCC(N)=O)C(N)=O
Kd (BCL2L1; binding, flow cytometry; pH 8): 0.005 µM

C#Cc1ccc2c(=O)[nH]nc(Cc3ccc(F)c(C(=O)N4CCN(C(=O)C=C)CC4)c3)c2c1
Kd (PARP16 (Homo sapiens, UniProt Q8N5Y8); covalent labelling, click chemistry in-gel fluorescence; HEK-293T; 2 h): 0.09 µM

Cc1noc(NS(=O)(=O)c2ccc(NC(=O)c3cc(-c4ccc5ccccc5c4)nc4ccccc34)cc2)c1C
Kd (PPIA; binding, SPR; pH 7.4): 10.1 µM

Cc1cc(CC(=O)N2C[C@H](O)C[C@H]2C(=O)NCc2ccccc2)on1
Kd (von Hippel-Lindau disease tumor suppressor, with Elongin B/C (VHL, Homo sapiens, UniProt P40337); isothermal titration calorimetry; 25 °C): 600 ± 17 µM

COc1ccc2nc3cc(Cl)ccc3c(NCCCCNc3nc(N)nc(N)n3)c2c1
Kd (DNA duplex with (CCTG)2 step; binding, ITC; binding site 2): 0.11 µM

COc1c(F)c(F)c(C(=O)N[C@H]2[C@@H](O)[C@@H](CO)O[C@@H](S[C@@H]3O[C@H](CO)[C@H](O)[C@H](NC(=O)c4c(F)c(F)c(OC)c(F)c4F)[C@H]3O)[C@@H]2O)c(F)c1F
Kd (LGALS3; cell-free assay, FP): 0.5 µM

CC(C)C1=CC23CCC4C(C)(C(=O)O)CCCC4(C)C2CC1C(C(=O)O)C3C(=O)O (stereo not drawn)
Kd (Replication protein A 70 kDa DNA-binding subunit, DBD-F (RPA1, Homo sapiens, UniProt P27694); fluorescence anisotropy competition; 25 °C): 9 µM

CO[C@H](C(=O)[C@@H](O)[C@@H](C)O)[C@@H]1Cc2cc3cc(O[C@H]4C[C@@H](O[C@H]5C[C@@H](O)[C@H](O)[C@@H](C)O5)[C@H](O)[C@@H](C)O4)c(C)c(O)c3c(O)c2C(=O)[C@H]1O[C@H]1C[C@@H](O[C@H]2C[C@@H](O[C@H]3C[C@](C)(O)[C@H](O)[C@@H](C)O3)[C@@H](O)[C@@H](C)O2)[C@H](O)[C@@H](C)O1
Kd (histone H2A-H2B dimer; fluorescence quenching titration; pH 7.0, 25 °C, no Mg2+): 0.78 ± 0.03 µM

Cc1ccnc(NS(=O)(=O)c2ccc(NC(=O)c3cc(-c4ccccc4C)nc4ccccc34)cc2)n1
Kd (PPIA; binding, SPR; pH 7.4): 6.34 µM

CCc1nc2cc3ccccc3cc2cc1C(=O)N1CCC[C@H]1C(=O)N[C@@H](C/C=C/C[C@H](NC(=O)[C@@H]1CCCN1C(=O)c1cc2cc3ccccc3cc2nc1CC)C(=O)N[C@@H](CCCCN)C(=O)NCCCN)C(=O)N[C@@H](CCCCN)C(=O)NCCCN
Kd ((CUG)10 RNA; SPR; pH 7.4): 0.068 µM

C[C@@H]1O[C@@H](O[C@H]2[C@H](O[C@H]3[C@H](O)[C@@H](O)C(O)O[C@@H]3CO)O[C@H](CO)[C@H](O)[C@@H]2O[C@H]2O[C@H](CO)[C@H](O)[C@H](O)[C@H]2O)[C@@H](O)[C@H](O)[C@@H]1O (stereo partly drawn)
Kd (CD209 antigen (CD209, Homo sapiens, UniProt Q9NNX6); binding, NMR): 2300 µM

C[n+]1cc2cc3cc(ccc31)NC(=O)CCCCC(=O)Nc1ccc3c(c1)cc(c[n+]3C)C(=O)Nc1ccc3[nH]cc(c3c1)CCNC2=O
Kd (c-MYC Pu22 G-quadruplex DNA; thiazole orange displacement; with: 0.50 µM thiazole orange): 0.19 ± 0.03 µM

CC(=O)N[C@@H]1[C@@H](O[C@@H]2O[C@H](C(=O)O)[C@@H](O[C@@H]3O[C@H](COS(=O)(=O)O)[C@@H](OS(=O)(=O)O)[C@H](O[C@@H]4O[C@H](C(=O)O)[C@@H](O[C@@H]5O[C@H](COS(=O)(=O)O)[C@@H](OS(=O)(=O)O)[C@H](O[C@@H]6O[C@H](C(=O)O)[C@@H](OS(=O)(=O)O)[C@H](OS(=O)(=O)O)[C@H]6OS(=O)(=O)O)[C@H]5NC(C)=O)[C@H](OS(=O)(=O)O)[C@H]4OS(=O)(=O)O)[C@H]3NC(C)=O)[C@H](OS(=O)(=O)O)[C@H]2OS(=O)(=O)O)[C@H](OS(=O)(=O)O)[C@@H](COS(=O)(=O)O)O[C@H]1N=[N+]=[N-]
Kd (Sclerostin (SOST, Homo sapiens, UniProt Q9BQB4); ligand displacement, FP): 0.23 µM

CCN(CC)C(=O)C1CCCN(C(=O)Nc2ccc3nc(-c4ccco4)c(-c4ccco4)nc3c2)C1 (stereo not drawn)
Kd (PPIA; binding, fluorescence; pH 8): 3.78 µM

CC[C@H](C)[C@H](NC(=O)[C@H](CCCNC(=N)N)NC(=O)[C@H](CO)NC(=O)[C@H](CC(C)C)NC(=O)[C@H](CCC(=O)O)NC(=O)[C@H](CCC(N)=O)NC(=O)[C@H](C)NC(=O)[C@@H](NC(=O)[C@H](Cc1c[nH]c2ccccc12)NC(=O)[C@@H](NC(=O)[C@H](CCC(=O)O)NC(=O)[C@@H]1CCCN1C(=O)[C@H](CCCNC(=N)N)NC(=O)c1ccc2c(c1)C(=O)OC21c2ccc(O)cc2Oc2cc(O)ccc21)[C@@H](C)CC)[C@@H](C)CC)C(=O)NCC(=O)N[C@@H](CC(=O)O)C(=O)N[C@@H](CCC(=O)O)C(=O)N[C@@H](Cc1ccccc1)C(=O)N[C@@H](CC(N)=O)C(=O)N[C@@H](C)C(=O)N[C@@H](Cc1ccc(O)cc1)C(=O)N[C@@H](Cc1ccc(O)cc1)C(=O)N[C@@H](C)C(=O)N[C@@H](CCCNC(=N)N)C(N)=O
Kd (BCL2L1; fluorescence anisotropy): 0.0038 ± 0.0014 µM

COc1ccc(Cc2cc3c4c(c2)O[C@H](CO)[C@H](O)[C@@H]4OC3)cc1
Kd (LGALS4 C-terminal domain; binding, competitive fluorescence polarization; 20 °C): 1700 ± 430 µM

O=P(O)(O)O[C@@H]1[C@@H](O)[C@H](O)[C@H](O)[C@H](O)[C@H]1OP(=O)(O)O
Kd (Inositol 1,4,5-trisphosphate-gated calcium channel ITPR1, N-terminal region (Itpr1, Rattus norvegicus, UniProt P29994, del318-332/R504Q); [3H]IP3 competition binding; N-terminal fragment R504Q): 1.25 µM

Cc1cnccc1CN1C[C@@H](c2cc(F)c(F)c(F)c2)CC1=O
Kd (SV2A (Homo sapiens, UniProt Q7L0J3); saturation binding; Alzheimer disease, pooled, frontal cortex P2 fraction): 0.0051 µM

O=C(O)C1OC(OC2C(C(=O)O)OC(OC3C(C(=O)O)OC(OC4C(C(=O)O)OC(OC5C(C(=O)O)OC(OC6C(C(=O)O)OC(O)C(O)C6O)C(O)C5O)C(O)C4O)C(O)C3O)C(O)C2O)C(O)C(O)C1O (stereo not drawn)
Kd (Beta-lactoglobulin (LGB, Bos taurus, UniProt P02754, A134V/G80D); STD NMR titration; pH 2.65, 37 °C, with: protein 20 µM): 147 ± 40 µM

O=C(Nc1cccc(C(=O)Nc2ccc(S(=O)(=O)O)c3cc(S(=O)(=O)O)cc(S(=O)(=O)O)c23)c1)Nc1cccc(C(=O)Nc2ccc(S(=O)(=O)O)c3cc(S(=O)(=O)O)cc(S(=O)(=O)O)c23)c1
Kd (E3 ubiquitin-protein ligase XIAP, BIR1 domain (XIAP, Homo sapiens, UniProt P98170, V86E); microscale thermophoresis): 135 ± 30 µM

Cc1cc(=O)[nH]c(-n2nc(-c3cccs3)cc2NC(=O)C2(c3ccc(Cl)cc3)CCCC2)n1
Kd (Cystic fibrosis transmembrane conductance regulator, NBD1 (CFTR, Homo sapiens, UniProt P13569, F494N/del508-508); binding, surface plasmon resonance): 38 µM

CN(C)c1ccc2c(-c3ccc(C(=O)NCCCC[C@@H](NC(=O)[C@@H](CCCNC(=N)N)NC(=O)[C@@H](CCCNC(=N)N)NC(=O)[C@@H](CCCNC(=N)N)NC(=O)[C@@H](CCCNC(=N)N)NC(=O)[C@@H](CCCNC(=N)N)NC(=O)[C@@H](CCCNC(=N)N)NC(=O)CCCCCNC(=O)[C@@H](CCCNC(=N)N)NC(=O)CCCCCNC(=O)c4ccc(-c5ccnc(N)n5)s4)C(N)=O)cc3C(=O)[O-])c3ccc(=[N+](C)C)cc-3oc2c1
Kd (cGMP-dependent protein kinase 1, isoform alpha (PRKG1, Homo sapiens, UniProt Q13976); binding, fluorescence anisotropy; with: cGMP and Mg2+): 0.012 µM

CC[C@H](C)[C@H](NC(=O)[C@H](CCCNC(=N)N)NC(=O)[C@H](CCCNC(=N)N)NC(=O)[C@H](Cc1ccccc1)NC(=O)[C@H](CCC(N)=O)NC(=O)[C@H](C)NC(=O)CNC(=O)[C@@H](NC(=O)[C@H](CCC(=O)O)NC(=O)[C@H](CCCNC(=N)N)NC(=O)[C@H](C)NC(=O)[C@H](Cc1c[nH]c2ccccc12)NC(=O)[C@H](CCC(N)=O)NC(=O)[C@H](CCC(=O)O)NC(=O)[C@H](CCC(=O)O)NC(C)=O)C(C)C)C(=O)N[C@@H](C)C(=O)N[C@@H](CC(=O)O)C(=O)N[C@@H](CC(=O)O)C(=O)N[C@H](C(=O)N[C@@H](CC(N)=O)C(=O)N[C@@H](C)C(=O)N[C@@H](CCC(N)=O)C(=O)N[C@@H](Cc1ccc(O)cc1)C(=O)N[C@@H](CCC(=O)O)C(=O)N[C@@H](CCCNC(=N)N)C(=O)N[C@@H](CCCNC(=N)N)C(=O)N[C@@H](CCCNC(=N)N)C(=O)N[C@@H](CCC(N)=O)C(N)=O)[C@@H](C)CC
Kd (BCL2L1; competitive fluorescence polarization; with: fluorescein-labelled peptide 10 nM): 7e-05 µM

C1=[N+]2CCCC[N+]3=Cc4ccc5[n]4[Au-]23[n]2c1ccc2-c1nc2ccccc2nc1-5.F[P-](F)(F)(F)(F)F
Kd (20-bp DNA duplex; SPR; pH 7.4, 37 °C): 3.4 µM

OC(Cc1cc(-c2ccc(C(O)C(F)(F)F)s2)sc1-c1ccc(-c2sc(-c3ccc(C(O)C(F)(F)F)s3)cc2CC(O)C(F)(F)F)s1)C(F)(F)F (stereo not drawn)
Kd (Microtubule-associated protein tau, 0N4R isoform, aggregated (MAPT, Homo sapiens, UniProt P10636); binding, fluorescence; 40% sucrose tau fraction): 0.59 ± 0.2 µM

CC#Cc1cc2c3c(c1C#CC)O[C@H](CO)[C@H](O)[C@@H]3OC2
Kd (LGALS4 C-terminal domain; binding, competitive fluorescence polarization; 20 °C): ~3000 µM

A few entries again:
CC#Cc1cc2c3c(c1C#CC)O[C@H](CO)[C@H](O)[C@@H]3OC2
Kd (LGALS4 C-terminal domain; binding, competitive fluorescence polarization; 20 °C): ~3000 µM

COc1ccc(Cc2cc3c4c(c2)O[C@H](CO)[C@H](O)[C@@H]4OC3)cc1
Kd (LGALS4 C-terminal domain; binding, competitive fluorescence polarization; 20 °C): 1700 ± 430 µM

CC[C@H](C)[C@H](NC(=O)[C@H](CCCNC(=N)N)NC(=O)[C@H](CCCNC(=N)N)NC(=O)[C@H](Cc1ccccc1)NC(=O)[C@H](CCC(N)=O)NC(=O)[C@H](C)NC(=O)CNC(=O)[C@@H](NC(=O)[C@H](CCC(=O)O)NC(=O)[C@H](CCCNC(=N)N)NC(=O)[C@H](C)NC(=O)[C@H](Cc1c[nH]c2ccccc12)NC(=O)[C@H](CCC(N)=O)NC(=O)[C@H](CCC(=O)O)NC(=O)[C@H](CCC(=O)O)NC(C)=O)C(C)C)C(=O)N[C@@H](C)C(=O)N[C@@H](CC(=O)O)C(=O)N[C@@H](CC(=O)O)C(=O)N[C@H](C(=O)N[C@@H](CC(N)=O)C(=O)N[C@@H](C)C(=O)N[C@@H](CCC(N)=O)C(=O)N[C@@H](Cc1ccc(O)cc1)C(=O)N[C@@H](CCC(=O)O)C(=O)N[C@@H](CCCNC(=N)N)C(=O)N[C@@H](CCCNC(=N)N)C(=O)N[C@@H](CCCNC(=N)N)C(=O)N[C@@H](CCC(N)=O)C(N)=O)[C@@H](C)CC
Kd (BCL2L1; competitive fluorescence polarization; with: fluorescein-labelled peptide 10 nM): 7e-05 µM

COc1c(F)c(F)c(C(=O)N[C@H]2[C@@H](O)[C@@H](CO)O[C@@H](S[C@@H]3O[C@H](CO)[C@H](O)[C@H](NC(=O)c4c(F)c(F)c(OC)c(F)c4F)[C@H]3O)[C@@H]2O)c(F)c1F
Kd (LGALS3; cell-free assay, FP): 0.5 µM
